Values quoted from earlier work, collected from citations in different studies.
Lines come from different studies, so protocols differ. ± gives the spread as reported.

c1ccc2c(c1)Cc1ccccc1-2  log Kow (experimental mean): 4.18
CC(C)NCC(O)COc1cccc2ccccc12 (stereo not drawn)  fraction unbound (mouse): 0.013
O=C(O)C(F)(F)C(F)(F)C(F)(F)C(F)(F)C(F)(F)C(F)(F)C(F)(F)C(F)(F)C(F)(F)F  IC50 (CYP2C9; inhibitor; Tox21 screening): 2.2 ± 0.55 µM
O=C(O)[C@@H](c1ccccc1)[C@@H]1CCCCN1  AUC(0-inf) (human, CES1 wild type, plasma; oral, 10 mg methylphenidate, single dose after breakfast, median): 534 ng·h/mL
CCCCN1CCCCC1C(=O)Nc1c(C)cccc1C (stereo not drawn)  fraction unbound (mouse): 0.274
O=C(O)C(F)(F)C(F)(F)C(F)(F)C(F)(F)C(F)(F)C(F)(F)F  IC50 (CYP3A4; inhibitor; Tox21 screening): inactive
CCCCCOc1ccc(-c2ccc(-c3ccc(C(=O)N[C@H]4C[C@@H](O)[C@@H](O)NC(=O)[C@@H]5[C@@H](O)[C@@H](C)CN5C(=O)[C@H]([C@@H](C)O)NC(=O)[C@H]([C@H](O)[C@@H](O)c5ccc(O)cc5)NC(=O)[C@@H]5C[C@@H](O)CN5C(=O)[C@H]([C@@H](C)O)NC4=O)cc3)cc2)cc1  volume of distribution (human, severe hepatic impairment; 50 mg single dose): 50.8 ± 17 L
O=S(=O)([O-])C(F)(F)C(F)(F)C(F)(F)C(F)(F)F.[K+]  IC50 (CYP3A4; inhibitor; Tox21 screening): inactive
C[C@H](Cc1cc2c(c(C(N)=O)c1)N(CCCO)CC2)NCCOc1ccccc1OCC(F)(F)F  IC50 (hERG (human); inhibitor): 8.91 µM
CCCCCCCN(CC)CCCC(O)c1ccc(NS(C)(=O)=O)cc1 (stereo not drawn)  fraction unbound (dog): 0.119
FC1(F)C(F)(F)C(F)(F)C2(F)C(F)(C1(F)F)C(F)(F)C(F)(F)C1(F)C(F)(F)C(F)(F)C(F)(F)C(F)(F)C12F (stereo not drawn)  IC50 (CYP2D6; inhibitor; Tox21 screening): inactive
COCCOC(=O)C1=C(C)NC(C)=C(C(=O)OC(C)C)C1c1cccc([N+](=O)[O-])c1 (stereo not drawn)  fraction unbound (dog): 0.007
Cc1nnc2n1-c1ccc(Cl)cc1C(c1ccccc1Cl)=NC2  Km (CYP3A4; substrate, item: 1-hydroxy metabolite formation): 18.2 µM
CN1CCCC(n2nc(Cc3ccc(Cl)cc3)c3ccccc3c2=O)CC1 (stereo not drawn)  fraction unbound (mouse): 0.012
O=C(O)C(F)(F)C(F)(F)C(F)(F)C(F)(F)C(F)(F)C(F)(F)C(F)(F)C(F)(F)C(F)(F)C(F)(F)F  activity (CYP3A4; concentration not given): inactive
